Measurements from different studies.
Each numbered part is a random draw from the data of one study; scales do not carry over between parts.

Series 1 — technique: protein binding microarray; molecule type: double-stranded DNA, one strand shown; matrix: in vitro; tested at: not given; reference: not given; reading: higher = stronger binding
Target: Histone acetyltransferase KAT6A, both winged helices, GST fusion (KAT6A, Homo sapiens, UniProt Q92794, residues 1-181)
Notes: 8-mer, flanks averaged, mean of 2 arrays, mostly near background
Residues (chain): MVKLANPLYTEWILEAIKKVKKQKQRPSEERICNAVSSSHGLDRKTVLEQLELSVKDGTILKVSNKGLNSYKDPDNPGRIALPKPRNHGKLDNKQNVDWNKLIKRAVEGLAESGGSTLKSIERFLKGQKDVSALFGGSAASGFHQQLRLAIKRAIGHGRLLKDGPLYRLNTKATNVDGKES
With `ACAGCCCA` the E-score was -0.184.
With `GAACAGGA` the E-score was -0.0817.
The E-score of `GCCTTGGA` is reported as -0.118.
`CAATCGCG` gave an E-score of 0.14.

Series 2 — technique: protein-binding microarray; molecule type: double-stranded DNA, one strand shown; matrix: in vitro; tested at: not given; reading: higher = stronger binding
Target: Transcription factor Sp1 (SP1, Homo sapiens, UniProt P08047, residues 1-785, full length assumed)
UniProt P08047, sequence (whole entry, looked up): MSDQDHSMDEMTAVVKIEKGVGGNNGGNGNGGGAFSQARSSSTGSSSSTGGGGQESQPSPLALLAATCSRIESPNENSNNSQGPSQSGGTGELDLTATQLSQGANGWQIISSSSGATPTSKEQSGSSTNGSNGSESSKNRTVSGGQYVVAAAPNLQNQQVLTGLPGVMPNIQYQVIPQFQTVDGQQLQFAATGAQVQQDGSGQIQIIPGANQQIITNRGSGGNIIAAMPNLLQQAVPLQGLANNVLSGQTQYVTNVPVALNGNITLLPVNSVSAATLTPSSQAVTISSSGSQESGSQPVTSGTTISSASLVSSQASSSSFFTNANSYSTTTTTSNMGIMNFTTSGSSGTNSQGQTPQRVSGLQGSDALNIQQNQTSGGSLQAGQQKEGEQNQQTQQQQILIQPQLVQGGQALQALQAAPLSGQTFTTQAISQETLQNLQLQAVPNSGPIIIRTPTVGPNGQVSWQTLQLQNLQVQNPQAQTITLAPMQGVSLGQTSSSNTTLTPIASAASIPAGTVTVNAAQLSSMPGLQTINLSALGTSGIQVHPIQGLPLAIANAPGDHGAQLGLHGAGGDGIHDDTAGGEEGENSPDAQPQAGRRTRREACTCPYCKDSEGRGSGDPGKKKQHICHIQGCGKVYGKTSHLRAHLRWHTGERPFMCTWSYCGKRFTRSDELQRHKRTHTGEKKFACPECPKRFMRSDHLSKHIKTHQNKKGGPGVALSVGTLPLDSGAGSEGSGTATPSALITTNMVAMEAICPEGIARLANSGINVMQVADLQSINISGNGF
Notes: k-mer, scored over probes, only values ≥0.25
`GGCATATA` has an E-score of 0.267.
The E-score of `ATTATGTA` is reported as 0.253.
The E-score of `GGCCATAA` is reported as 0.25.

Series 3 — technique: Spec-seq; molecule type: double-stranded DNA, one strand shown; matrix: in vitro; tested at: not given; notes: whole probe, mean of replicates; reference: not given; reading: lower = stronger binding
Target: POU, POU domain (Salpingoeca helianthica)
Residues (chain): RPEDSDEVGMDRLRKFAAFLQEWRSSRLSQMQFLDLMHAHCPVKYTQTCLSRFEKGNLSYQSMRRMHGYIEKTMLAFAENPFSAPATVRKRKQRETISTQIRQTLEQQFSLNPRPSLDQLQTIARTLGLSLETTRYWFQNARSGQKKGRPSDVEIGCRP
`GAGTCGTCTCGTCAGCACATGCACAACCGTAGAGCACTCAGGTC` — result for “relative binding energy”: 1.12 ln ratio.
Under “relative binding energy”, `GAGTCGTCTCGTCAGCACGGCATAATCCGTAGAGCACTCAGGTC` is recorded as 0.76 ln ratio.
`GAGTCGTCTCGTCAGCACATATTTATCCGTAGAGCACTCAGGTC`: “relative binding energy” -0.208 ln ratio.
`GAGTCGTCTCGTCAGCACATTTGGATCCGTAGAGCACTCAGGTC` — result for “relative binding energy”: 1.1 ln ratio.

Single results of other studies
`PhoQ, residues 284 288 289 292 302 303 QWGLFV` gave a fold induction of 0.986 (PhoP, residues 12 14 15 18 19 FWNTL (Escherichia coli, UniProt P23836); Sort-seq, refers to: YFP reporter; E. coli; PhoQ-PhoP variant library, with: 10 µM Mg2+; reference: high Mg2+ state, higher = stronger signaling).

Some of these lines once more (series 2):
`GGCATATA` has an E-score of 0.267.
The E-score of `ATTATGTA` is reported as 0.253.
